Results gathered from unrelated publications.
Each line is one published result; not all experiments were run side by side.
Organism: Staphylococcus aureus

CC[C@H](C)[C@@H]1NC(=O)[C@H](CO)NC(=O)[C@H](CCCCN)NC(=O)[C@@H]2CSSC[C@@H](C(=O)N[C@@H](Cc3ccc(O)cc3)C(N)=O)NC(=O)[C@H](CCCCN)NC(=O)[C@@H]3CSSC[C@H](NC(=O)[C@H](CCCNC(=N)N)NC(=O)[C@H](CC(C)C)NC(=O)[C@H](CC(=O)O)NC(=O)[C@H](CC(=O)O)NC(=O)[C@H](CCC(=O)O)NC(=O)[C@H](CC(N)=O)NC(=O)[C@H](Cc4c[nH]c5ccccc45)NC(=O)C(C)(CC)NC(=O)CNC(=O)[C@H](CC(N)=O)NC(=O)[C@@H](NC(=O)CNC(=O)[C@H](Cc4ccccc4)NC(=O)CN)CSSC[C@H](NC(=O)[C@H](Cc4ccc(O)cc4)NC(=O)CNC(=O)CNC(=O)[C@H](CCCCN)NC(=O)[C@H](Cc4ccc(O)cc4)NC(=O)[C@H]4CCCN4C(=O)[C@@H]4CCCN4C1=O)C(=O)N[C@@H](C)C(=O)N[C@@H](CCCCN)C(=O)N1CCC[C@@H]1C(=O)NCC(=O)N[C@@H](Cc1ccccc1)C(=O)N[C@@H](C(C)C)C(=O)N3)C(=O)N[C@@H](Cc1c[nH]cn1)C(=O)N[C@@H](CC(N)=O)C(=O)N[C@@H](Cc1c[nH]cn1)C(=O)N2 (stereo partly shown) — MIC (469, methicillin-resistant mecA, cation-adjusted Mueller Hinton broth; 18 h, 37 °C): 1 µM
CC(C)[C@H](NC(=O)CNC(=O)CNC(=O)[C@H](Cc1ccc(O)cc1)NC(=O)[C@H](CS)NC(=O)[C@@H](NC(=O)[C@H](Cc1c[nH]c2ccccc12)NC(=O)[C@H](Cc1ccccc1)NC(=O)[C@H](CS)NC(=O)[C@H](Cc1c[nH]c2ccccc12)NC(=O)[C@@H](N)CCCNC(=N)N)C(C)C)C(=O)N[C@@H](CS)C(=O)N[C@@H](Cc1ccc(O)cc1)C(=O)N[C@@H](CCCNC(=N)N)C(=O)N[C@@H](CCCNC(=N)N)C(=O)N[C@@H](CS)C(=O)N[C@@H](CCCNC(=N)N)C(=O)O — MIC (broth microdilution; ATCC 29213, Mueller-Hinton broth; 16 to 20 h, 37 °C): 4.39 µg/mL
c1ccc(CCNC2CCCc3c2[nH]c2ccc(C4CCCCC4)cc32)cc1 (stereo not shown) — MIC (broth microdilution; Mu50 VISA): 2 µg/mL
CC[C@H](C)[C@@H]1NC(=O)[C@@H]2CCCN2C(=O)[C@H](C)NC(=O)[C@H](CC(C)C)NC(=O)[C@@H]2CCCN2C(=O)[C@H](C)NC(=O)[C@@H]2CSSC[C@H](NC(=O)[C@H](C)NC(=O)[C@H](C)NC(=O)[C@H](Cc3ccc(O)cc3)NC(=O)[C@@H]3CCCN3C(=O)CNC(=O)[C@H](Cc3c[nH]c4ccccc34)NC1=O)C(=O)N[C@@H](CC(C)C)C(=O)N[C@@H](CO)C(=O)N[C@@H](C)C(=O)N[C@H]1CSSC[C@H](NC(=O)[C@H](C(C)C)NC(=O)[C@@H]3CCCN3C(=O)CNC(=O)CNC(=O)CNC(=O)[C@H](C)NC(=O)[C@H](C)NC(=O)[C@H](CC(C)C)NC1=O)C(=O)N[C@@H](CC(C)C)C(=O)N[C@@H](C)C(=O)N[C@@H](C(C)C)C(=O)N2 — MIC (ATCC 43300): > 128 µg/mL
CSCC[C@H](NC=O)C(=O)N[C@@H](CCCNC(=N)N)C(=O)N[C@H](C(=O)NCC(=O)N[C@@H](CC(N)=O)C(=O)N[C@@H](C)C(=O)N[C@@H](CC(N)=O)C(=O)O)[C@@H](C)O — MIC (broth dilution; Newman): > 200 µM
CC(C)C[C@@H](NC(=O)[C@@H](CCCNC(=N)N)NC(=O)[C@H](N)CCCNC(=N)N)C(=O)N[C@H](CC(C)C)C(=O)N[C@H](CCCNC(=N)N)C(=O)N[C@H](CCCCN)C(=O)N[C@H](CC(C)C)C(=O)N[C@H](CCCCN)C(=O)NCC(=O)N[C@H](CCCCN)C(=O)N[C@H](CCCCN)C(=O)N[C@H](CC(C)C)C(=O)N[C@H](Cc1ccc(O)cc1)C(=O)N[C@H](CC(C)C)C(=O)N[C@H](Cc1ccc(O)cc1)C(=O)N[C@H](Cc1ccccc1)C(=O)N[C@H](CCCCN)C(=O)N[C@H](CC(C)C)C(=O)N[C@H](CCC(N)=O)C(=O)N[C@H](CC(C)C)C(=O)N[C@H](CC(C)C)C(=O)N[C@H](CCCCN)C(=O)N[C@H](CCCCN)C(N)=O — MIC (CCARM 3090, methicillin-resistant, Mueller-Hinton broth; 24 h): 4 µM
CC[C@H](C)[C@H](NC(=O)[C@@H](CCCNC(=N)N)NC(=O)[C@H](CCCNC(=N)N)NC(=O)[C@H](Cc1c[nH]c2ccccc12)NC(=O)[C@H](Cc1c[nH]c2ccccc12)NC(=O)[C@H](CCCNC(=N)N)NC(=O)[C@@H]1CCCN1C(=O)[C@H](CCCNC(=N)N)NC(=O)[C@@H]1CCCN1C(=O)[C@H](CC(C)C)NC(=O)[C@H](Cc1ccc(O)cc1)NC(=O)[C@@H]1CCCN1C(=O)[C@@H]1CCCN1C(=O)[C@H](CCCCN)NC(=O)[C@H](CC(=O)O)NC(=O)[C@@H](N)C(C)C)C(=O)N[C@@H](Cc1ccc(O)cc1)C(=O)N[C@@H](CC(N)=O)C(=O)N[C@H](CCCNC(=N)N)C(N)=O — MIC (broth microdilution; DSM 6247; 18 h, 37 °C, 25% MHB2): 32 µg/mL
C#CCOc1ccc(CN[C@@]2(C)C[C@H](O[C@H]3[C@H](Oc4c5cc6cc4Oc4ccc(cc4Cl)[C@@H](O)[C@@H](NC(=O)[C@@H](CC(C)C)NC)C(=O)N[C@@H](CC(N)=O)C(=O)N[C@H]6C(=O)N[C@H]4C(=O)N[C@H](C(=O)N[C@H](C(=O)N[C@@H](CCCNC(=N)N)C(N)=O)c6cc(O)cc(O)c6-c6cc4ccc6O)[C@H](O)c4ccc(c(Cl)c4)O5)O[C@H](CO)[C@@H](O)[C@@H]3O)O[C@@H](C)[C@H]2O)cc1OC — MIC (broth microdilution; VISA LIM-2, tryptic soy broth; 20 to 24 h, 37 °C, 0.002% polysorbate 80): 2 µg/mL
CC(=CC(C)CCCCC(=O)O)C1OC2C=CC1OC(=O)C=CC=CC=CC1OC3CC1OC(C=CCC1OC(CC(O)C1C)C(O)C(O)C=CCCC=CC2)C3C (stereo not shown) — MIC (RKI 11-02670): 0.15 µM
CC[C@H](C)[C@H](NC(=O)[C@@H](CCCNC(=N)N)NC(=O)[C@H](CCCNC(=N)N)NC(=O)[C@@H]1CCCN1C(=O)[C@@H]1CCCN1C(=O)[C@H](Cc1c[nH]cn1)NC(=O)[C@@H]1CCCN1C(=O)[C@H](CCCNC(=N)N)NC(=O)[C@@H]1CCCN1C(=O)[C@H](CC(C)C)NC(=O)[C@H](Cc1ccc(O)cc1)NC(=O)[C@@H]1CCCN1C(=O)[C@@H]1CCCN1C(=O)[C@H](CCCCN)NC(=O)[C@H](CC(=O)O)NC(=O)[C@@H](N)C(C)C)C(=O)N[C@@H](Cc1ccc(O)cc1)C(=O)N[C@@H](CC(N)=O)C(=O)N[C@H](CCCNC(=N)N)C(N)=O — MIC (broth microdilution; DSM 6247; 18 h, 37 °C, 25% MHB2): > 128 µg/mL
c1ccc(CN2CCOCCOCCN(CCCCCCCCCCCCN3CCOCCOCCN(CCCCCCCCCCCCN4CCOCCOCCN(Cc5ccccc5)CCOCCOCC4)CCOCCOCC3)CCOCCOCC2)cc1 — MIC (1199B (NorA overexpressing)): 1 µM
CC1CCN(C(=O)c2cccc(NC(=O)Nc3ccc(F)cc3)c2)CC1 — MIC (checkerboard, item: ceftobiprole; CRB, PBP4 overexpressor; 25 µM): > 64 µg/mL
CN[C@H](CC(C)C)C(=O)N[C@H]1C(=O)N[C@@H](CC(N)=O)C(=O)N[C@H]2C(=O)N[C@H]3C(=O)N[C@H](C(=O)N[C@H](C(=O)O)c4cc(O)cc(O)c4-c4cc3ccc4O)[C@H](O)c3ccc(c(Cl)c3)Oc3cc2cc(c3O[C@@H]2O[C@H](CO)[C@@H](O)[C@H](O)[C@H]2O[C@H]2C[C@](C)(NCc3ccc(OCc4cn(CCCCC(=O)N[C@H](C(=O)N[C@@H](CCN)C(=O)N[C@H]5CCNC(=O)[C@H]([C@@H](C)O)NC(=O)[C@H](CCN)NC(=O)[C@H](CCN)NC(=O)[C@H](CC(C)C)NC(=O)[C@@H](CC(C)C)NC(=O)[C@H](CCN)NC5=O)[C@@H](C)O)nn4)c(OC)c3)[C@H](O)[C@H](C)O2)Oc2ccc(cc2Cl)[C@H]1O — MIC (NRS402 VISA): 0.75 µM

Repeated from above:
CC(=CC(C)CCCCC(=O)O)C1OC2C=CC1OC(=O)C=CC=CC=CC1OC3CC1OC(C=CCC1OC(CC(O)C1C)C(O)C(O)C=CCCC=CC2)C3C (stereo not shown) — MIC (RKI 11-02670): 0.15 µM
